Published values collected from several papers.
Every numbered part comes from another study and shows a few of its results, in no order.

Block 1
Target: Sal-like protein 4, full length isoform B (SALL4, Homo sapiens, UniProt Q9UJQ4-2, residues 1-616)
Method: universal PBM
Form: double-stranded DNA, one strand shown
Sample: in vitro
Concentration: not given
Notes: 8-mer, flanks averaged, mean of replicates
Direction: higher = stronger binding
Target sequence (chain): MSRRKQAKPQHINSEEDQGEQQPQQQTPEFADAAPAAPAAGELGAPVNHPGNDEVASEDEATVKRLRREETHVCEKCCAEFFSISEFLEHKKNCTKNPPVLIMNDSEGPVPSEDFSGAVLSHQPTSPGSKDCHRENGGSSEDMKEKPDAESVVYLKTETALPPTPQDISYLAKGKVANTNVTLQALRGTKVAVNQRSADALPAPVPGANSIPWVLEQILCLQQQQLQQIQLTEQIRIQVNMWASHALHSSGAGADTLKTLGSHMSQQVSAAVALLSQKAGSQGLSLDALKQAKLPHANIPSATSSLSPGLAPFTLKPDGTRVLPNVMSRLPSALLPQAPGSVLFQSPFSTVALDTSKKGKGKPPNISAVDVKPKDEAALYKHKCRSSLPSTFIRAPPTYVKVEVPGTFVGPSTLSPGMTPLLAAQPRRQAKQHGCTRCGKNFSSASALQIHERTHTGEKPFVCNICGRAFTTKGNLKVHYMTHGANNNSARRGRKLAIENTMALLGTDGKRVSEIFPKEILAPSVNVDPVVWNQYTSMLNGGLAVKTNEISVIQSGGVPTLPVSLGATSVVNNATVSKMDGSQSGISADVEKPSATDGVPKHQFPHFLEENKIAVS
Strand | E-score
CATCATAC | 0.317
CATCTCGG | -0.00974
GCACGGGC | -0.297
AAGGTTAG | 0.0631
CTTTAAAG | 0.13
AAACATGC | 0.0283
ATAGCTTG | 0.138
AACGTGTA | 0.211
ATACAGGG | 0.173
GTGATAGA | 0.135
AAGCAGGG | -0.111
ACCCTTCC | -0.0975
AAATACAA | 0.384
GACACTAA | -0.00739
CTTATCTC | 0.122
CGCCCTAA | -0.115
ATCCCCGC | -0.306
ACACGCGA | 0.0315
GAGAGTGC | -0.0725
AACGTACC | -0.138
TACCTTGA | 0.0898
GGAATGCC | -0.213
AGTGCTTA | 0.077
GTTGCTGA | 0.0254
ACCGATGG | -0.13

Block 2
Target: RING finger protein unkempt homolog, zinc fingers 1-6, GST-SBP tag (UNK, Homo sapiens, UniProt Q9C0B0, residues 30-357)
Chain of UniProt Q9C0B0 (30-357, looked up): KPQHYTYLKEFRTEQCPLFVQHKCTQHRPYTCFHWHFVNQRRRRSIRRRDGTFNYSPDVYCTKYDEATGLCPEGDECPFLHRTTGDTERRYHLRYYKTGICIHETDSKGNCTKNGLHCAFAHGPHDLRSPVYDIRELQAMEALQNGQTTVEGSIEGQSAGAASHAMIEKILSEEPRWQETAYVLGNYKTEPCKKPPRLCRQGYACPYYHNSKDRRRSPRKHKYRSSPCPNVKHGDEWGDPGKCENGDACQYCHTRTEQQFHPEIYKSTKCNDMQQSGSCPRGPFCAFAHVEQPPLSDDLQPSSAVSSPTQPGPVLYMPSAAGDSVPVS
Method: RNA Bind-n-Seq
Form: RNA
Sample: in vitro
Concentration: not given
Notes: RNA with constant flanks, ends assumed
Reference: input RNA pool
Direction: higher = stronger binding
Constant ends, left off below: GGGAGUUCUACAGUCCGACGAUC … CAACAGAGGAUUGAGCAUCA
Strand | bound/input enrichment
UUUGUAUUUAUGCUAAGCACACGUGCUGGUGGUCUGGGCAUCAAUCUUGCAACUGCUGAUGCCGUCAUUUUAUAUGACUCAGAUUGGAAUCCGCAAGUUGAUCUUCAGGCUAUGGACCGU | 0.13 ratio
UUCGUGCAGUUUGCUUCACAGGAAAUAGCUGAAAAGGCUCUAAAGAAACACAAGGAAAGAACCGGGCACAGGUAUAUUGAAAUAUUUAAGAGCAGUCGAGCUGAAGUUAGAACUCAUUAU | 0.874 ratio
CUAGCCAAACACCCAUGCAAUGCUUCAAUGGAAUGCGACAAAUGUCAGAGGCGGCAGAAGAACCGAGCAUUUUGCUAUUUUUGUAAUUCUGUUCAGAAGUUACCAAUUUGUGCACAGUGU | 0.175 ratio
UCCAGUCUUACACUUAUGGUUGGCCUCAAAUCUAUUGCAUUUAUGAUAAUGUAUUAUAUCCCGUUGAGUUUAAUAUUUUUUUAUUAGCCUGUAAAUAAAGAUGGCAUCUUCUACAUUAAA | 1.88 ratio
GCUACUUCUGGUGAUAUUUGGCCUGGCCUUUCAGCUUAUGAUAAUAGUCCAAGGUCACCUCACCGUCCUUCACCUAUUGCUACACCACCCAGUCAGAGUUCAUCAUGCUCAGAUGCCCCC | 0.26 ratio
UAGGACACAUUCCCAGAAGAGCGGAAAGAUCAUUGACGUGGAACUACACACGAAGUGUAAUCCGUGGGGGAAAAAAUAUUUUUUAAACAAAGGAUAUAACCAUAUUUAGUUGUACAGUAA | 2.21 ratio
UGGGAUGCCUCCACAGAUGCACCUGAAAAGUCUUCUCUCUUUCACCAAGGAGGAAGAAGCCGUACUUUCCUGUCACAUAGCUUAAGUAACCAGGCCGGUGUUCACCAGUCUCUAGUAAGU | 0.329 ratio
CAGAUUUUGGCAGGAGUUAGAAUAAAUCCCGGGGCCUGGGCUUCUCUAUUCUUGGCCCUCCGCCGUCUCCCUCCGAGAGGAGGCCAGAGGGAGAGGAGGAUCUCAGCAGGCCUCUAGCCG | 1.87 ratio

Block 3
Target: Max dimerization protein 1, bHLH-zipper, MAX partner unstated (MXD1, Homo sapiens, UniProt Q05195, residues 56-136)
Method: protein-binding microarray
Form: double-stranded DNA, one strand shown
Sample: in vitro
Concentration: not given
Notes: k-mer, scored over probes, only values ≥0.25
Direction: higher = stronger binding
Residues (chain): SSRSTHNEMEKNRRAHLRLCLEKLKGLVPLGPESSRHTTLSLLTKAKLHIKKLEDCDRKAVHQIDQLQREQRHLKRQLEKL
Strand | E-score
CGCCCCAC | 0.302
CACATGAA | 0.331
CGAGCACG | 0.353
GCATGCGA | 0.368
CGTGCCTC | 0.28
ACACGCCC | 0.28
AACCACGC | 0.384
ACCATATG | 0.376
AGGGCGGG | 0.261
ATCCCATG | 0.286
ACGTGAAT | 0.268
ATGCGGCA | 0.314
CACGTTTC | 0.401
ATGTTGTC | 0.264
CACGCCGC | 0.377
CGTGAAAG | 0.257
ACATGTTC | 0.306
CATGTCGG | 0.301
TCCATGCA | 0.33
CACGCACC | 0.316
ACGTGGAC | 0.359
AATAGCAT | 0.257
AGCATGCA | 0.395
ACAACCCC | 0.266
AGCGTGTG | 0.348

Block 4
Target: RNA binding protein fox-1 homolog 2, RRM domain, GST-SBP tag (RBFOX2, Homo sapiens, UniProt O43251-10, residues 100-194)
Method: RNA Bind-n-Seq
Form: RNA
Sample: in vitro
Concentration: 365 nM
Notes: natural RNA segment, single round, ends assumed
Reference: no-protein control
Direction: higher = stronger binding
Constant ends, left off below: GGGAGUUCUACAGUCCGACGAUC … UGGAAUUCUCGGGUGCCAA
Target sequence (chain): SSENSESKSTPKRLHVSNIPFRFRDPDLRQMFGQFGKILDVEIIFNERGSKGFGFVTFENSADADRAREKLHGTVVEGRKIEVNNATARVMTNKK
Strand | RBNS enrichment (R)
CAGGAAAAAUACUACAAGUAAUUGUGGUGGAAAUGUCUGUGUUCCUUGGGAAUGCUGCGCUCUCUGUAGUUUCCAUCAUUGGUGCAGUUCGAACGAAUGAGUAGAGUUCA | 0.343
UGGCUAUUGCCAAUUCCCCACUGCAAAGGGGAAGGCAGAUUUUAUGAAGAGUUUUAGGAAUAAAUACAUUUUAUAGAAUGGAAACCCAGUAUGGUACUGGGGAAGUUUAU | 0.467
CAUCCUCAGCCCAUCAUUUGUGAACACUGGACUCUGAAAUAAAUGCUGCCUGUCACGUGGACACUUUCUACCGCCAGGUUCUCUUCUCAGGGAGGAAGAUAAAGGGGGAA | 0.454
CUAGAUUUGACAUUACUUCCUGUAUCAUUUUACUGUAUUUUUGCAUGAUUCCUUGUAUUGCAUUUCUUUGCACAUAUUAUGGGCUUGUGACCCUAAACUUGCAGGCAAGA | 7.02
AUGAACAAUCUGCAGCACACUGAAGGGCAUUCUGAAUUGAAGCUUGGAGAACUGCACUAAACCCACUAAACAGAUGCAAAAACCUGACCAGGCCCAACACCCACCCUGCC | 0.661
CCCGUCCACUCUGGGGCUGCCCUACUGAAUGCCCCUUUCCAGGACCUUGGUAUUCCUUCUCAUUCAGUCCCCAGCACAUCCGGCUACCCCUAGCUCUCUCCACAUUCAUU | 0.741
AGAUGGGCCAGGACAACCAGCAAGACACCUGUUGGGAAGCACCGGGUAUAGAAUCAUAUUUGGUGUUUGCCUGUAAGACAACUAGGGGAGCCCUUUAAGGAAAAGAUCAG | 0.248
GCCUCUUCUCUUGGAGUUCUGAGGCCUGGGGAUGCCCAGGAACACUGGGCACCUGCUGCUGUUAGGGCCAAUGCAUAGUCUCAGCACCGGUGUCCUAAGGUUAAGGCGGU | 0.38

For quick reference, copied from above (block 1):
Strand | E-score
ACCGATGG | -0.13
TACCTTGA | 0.0898
CATCTCGG | -0.00974
AACGTACC | -0.138
AACGTGTA | 0.211
ACACGCGA | 0.0315
AAATACAA | 0.384
GAGAGTGC | -0.0725
ATAGCTTG | 0.138
